Results from different studies.
Parts stem from different laboratories: compare values within a part only.

Study 1
Target: Histone acetyltransferase KAT6A, winged helix 2, GST fusion (KAT6A, Homo sapiens, UniProt Q92794, residues 85-181)
Technique: protein binding microarray
Form: double-stranded DNA, one strand shown
Medium: in vitro
Tested at: not given
Notes: 8-mer, flanks averaged, mean of 2 arrays, mostly near background
Reference: not given
Reading: higher = stronger binding
Target sequence (chain): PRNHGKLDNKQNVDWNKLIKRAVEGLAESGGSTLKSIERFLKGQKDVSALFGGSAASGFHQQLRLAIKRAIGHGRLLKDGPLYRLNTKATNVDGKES
Strand | E-score
GACTCAAC | -0.00983
ACTCCACT | -0.0892
CTTACATA | -0.0242
AGAGATCG | -0.0123
ACCTGAGT | 0.0279
CTGGGGGA | -0.0197
ATCAGCAT | 0.00587
GGGGAGTA | 0.107
TCATACGA | -0.0258
ACCGTAGG | 0.00894
CTACGCAC | 0.0366
ACCTCGAA | 0.108
GATGGCCA | -0.0699
AACATAGG | -0.0923
GCAGCGAC | 0.0973
ATAACACC | 0.021
AGAACAGG | -0.206
CGTGCCCA | 0.0105
CGATAAGC | -0.0543
CAGGTTCA | 0.00579
CCAACGAC | -0.101
ATTCAGTA | -0.063
AGTGGGCG | 0.213
GGTAAAGA | -0.0102

Study 2
Target: Interferon regulatory factor 7, full length, phosphomimetic (IRF7, Homo sapiens, UniProt Q92985, residues 1-503, S101K/S471D/S472D/S475D/S476D/S477D/S483D/S484D/S487D)
Technique: protein-binding microarray
Form: double-stranded DNA, one strand shown
Medium: in vitro
Tested at: 250 nM
Notes: 60-bp whole probe
With: salmon DNA 0.4 mg/ml
Reference: random background probes
Reading: higher = stronger binding
All sequences stand within: GCCTAGCAC … GTCTTGATTCGCTTGACGCTGCTG
Residues (chain): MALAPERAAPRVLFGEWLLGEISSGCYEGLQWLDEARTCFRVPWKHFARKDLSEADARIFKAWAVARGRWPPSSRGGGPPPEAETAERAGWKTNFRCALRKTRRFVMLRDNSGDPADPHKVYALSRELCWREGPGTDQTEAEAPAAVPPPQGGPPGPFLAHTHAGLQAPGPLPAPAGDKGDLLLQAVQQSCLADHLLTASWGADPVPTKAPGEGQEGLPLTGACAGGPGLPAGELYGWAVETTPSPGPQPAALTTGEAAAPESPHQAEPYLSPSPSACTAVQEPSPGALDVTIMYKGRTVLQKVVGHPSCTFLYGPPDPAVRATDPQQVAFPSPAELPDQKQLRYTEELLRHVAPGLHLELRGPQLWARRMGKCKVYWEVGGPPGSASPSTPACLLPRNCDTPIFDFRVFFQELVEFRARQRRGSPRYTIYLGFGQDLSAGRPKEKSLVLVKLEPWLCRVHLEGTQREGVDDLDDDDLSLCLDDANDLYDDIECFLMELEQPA
Strand | log fluorescence [z-score]
GACGGTATCCTCCTGCTGACGTGCTAG | -0.349
ACGTCTTCATGTTTTTTTCTGTGCTAG | 0.621
GACGGTCTCGGCTTCGGGACGTGCTAG | 0.529
TTAGGTATCGATTATCGGTTAGTGCTA | 1.77
GAAGATCTCAGACTGGAGACGTGCTAG | -0.507
TACGGACTGGGACTGGGGACGTGCTAG | -0.378
GACGGACTGGGACTGGGGCCGTGCTAG | -0.461
TTAGGTTTCGACACTGGGTAAGTGCTA | 3.88
TTAGGACTGCTTCTGCTTTAGTGCTAG | 0.0474
ATTGGTTGAACATGAACTTCGTGCTAG | -0.418
TTAGATCTCAGTTTCGACTAGTGCTAG | 3.61
TCAACTTCTGTTTTTGCACTGTGCTAG | 0.268
TCATTTTTTTAATTGAAACTGTGCTAG | 0.993
GACGATTTCAGTCTCGAGAAGTGCTAG | 0.423
TCAATTATATCTGTGTTACTGTGCTAG | 0.439
AACGGTCTCCTTCTCCTGACGTGCTAG | 0.000887
CTAGGTATCCTTCTCCTTTAGTGCTAG | 0.737
TCAGTATTTTTTCTGAAACTGTGCTAG | 0.632
AGTATGTTCCTTATTTAAGAGTGCTAG | 1.32
GACGGTTCCGGTTTCGGGCCGTGCTAG | 5.5
GACGATTTCAAACTGGAGACGTGCTAG | 0.0366
TTAGAATCCAGTTTCGATTAGTGCTAG | 9.05
TTAGCTATCAGTCTCGATTAGTGCTAG | 1.15
GACGGTCTCCTTCGCCTGACGTGCTAG | -0.25
GTCGGACTGGGGACTGGGGACGTGCTA | -0.29

Study 3
Target: RNA binding protein fox-1 homolog 2, RRM domain, GST-SBP tag (RBFOX2, Homo sapiens, UniProt O43251-10, residues 100-194)
Technique: RNA Bind-n-Seq
Form: RNA
Medium: in vitro
Tested at: 365 nM
Notes: natural RNA segment, single round, ends assumed
Reference: no-protein control
Reading: higher = stronger binding
All sequences stand within: GGGAGUUCUACAGUCCGACGAUC … UGGAAUUCUCGGGUGCCAA
Target sequence (chain): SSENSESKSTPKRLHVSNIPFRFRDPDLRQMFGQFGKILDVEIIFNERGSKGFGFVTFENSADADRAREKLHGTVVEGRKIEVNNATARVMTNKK
Strand | RBNS enrichment (R)
UGCUUGCCUGGCCCUGUCCUGGACCCAGCUUUGCUAGGUCUCCUUGGAAACCAGGCCUGGGCCUCAAAAUGGAGAUGGAUCCCAGGUCUUGUGGGACCCUGGGAUGUUUG | 0.405
UCCCCUCUGCACUCUCUCACAGGGACAAACUUGCAGAUACAUCCGAUAGGGUCUUGGCUUUCUACUGUCCUUAUUUCUAGAUUAUUUCCUUGUAAGUUGGAAAGAAUGUU | 0.251
AGCCCCUUAGCCCAUGUCAUGUCAGUGGCCACUGCCCACAGGUGCCACCUUGCCCACCGCAUGACCCCUUGUGCCAGUCGCGCAGCUGUGUGUGGUGUCGCGCCCUCUCC | 0.792
UGUACAGUCUCUGUGGCUUGGUUGAGUAUGCUCUUUCCUGUGCCAGGUCUUGCUCUGGCUGUUCGCUACUGGCUGAUAAUAACAAGGACCCUGUGUGUGUGUGAAUGAGC | 1.43
CCCUGUUCAAAGGAGAAUGGUGGAUAAUACUGUCUGAGGAAAUCAGAACUUAUUUGAGAAGGAAGCUCUCGUUCCACAUUCCUAGCAACUAUAUUCUCAGGCACACAUAG | 0.411
CAUUUUGUGUGUGCAGACAAGGGUGAGGAGACUCGCCAGCCUGCUCUCUCAGGAGCACGUGUGAACCGUCUUCGUGCUUCAGCGAAAGCGAGUUUGAGGCAGUCUUGCAA | 0.706
GUUCCCAUCUCACCUCACCAUUCCGCUAUAAGGCUUUUUAGCAUUUUAGGGCCAGGAGAGAGAGAGAGAGAGAGAAGCCCCUUCGGGUUUGAAAAUGAAGGACUGCCUUG | 0.329
AUUCUCUUGUCAUAGUCCUGGUUUGCCAGCUGACUACAGGAUAGACCCAGCUGUCUGGCACUCAAACGGUCUCUGCAGCCACAGUUUUAUCAAGUAUCCUGUAUGUGUUC | 0.443
GCCGAUCCCGAUCCCUGUCGGGCUCCUCCGACUCCUCGGGCUGGACACCGAAACCUCCCUUCUUAAAGCGUGUGAGGUUGGGUGAUAGCCGUUCCUUCCCCGACACCCUC | 0.4
GGAUAUAAGAUUAAUGGAAUGUAUAUUUUUAUAUAAGACGUAUACGGCACCUUCUUGAAAAGGAAGCAUUUGAACUUGUUCCUCCCUAUAGUUCUAUUGCCUUAUAUGCA | 7.57
CCUAGCGACAUUAGCUGAGAACACCACGGAGCUGCUUCCCUCCCUCUGCAGUCAGUCUGUUUUCAGAGGCACCCCAGCGAGCCCAGUGCAAGCCCGUAACCCUCCAGAGC | 0.588
CUCAGGCCUUAGGGUGUAUUUGUCUUUCAGGAAGAUCAUAAUGGACAGAGAUCCUUGGAGGUUCAAAGACCAAGUACCAGACUGGAAAAUUGAGUCUGAAAGCCACAAGG | 0.534

Study 4
Target: Ras GTPase-activating protein-binding protein 1, RRM domain (G3BP1, Homo sapiens, UniProt Q13283)
Sequence of UniProt Q13283 (whole entry, looked up): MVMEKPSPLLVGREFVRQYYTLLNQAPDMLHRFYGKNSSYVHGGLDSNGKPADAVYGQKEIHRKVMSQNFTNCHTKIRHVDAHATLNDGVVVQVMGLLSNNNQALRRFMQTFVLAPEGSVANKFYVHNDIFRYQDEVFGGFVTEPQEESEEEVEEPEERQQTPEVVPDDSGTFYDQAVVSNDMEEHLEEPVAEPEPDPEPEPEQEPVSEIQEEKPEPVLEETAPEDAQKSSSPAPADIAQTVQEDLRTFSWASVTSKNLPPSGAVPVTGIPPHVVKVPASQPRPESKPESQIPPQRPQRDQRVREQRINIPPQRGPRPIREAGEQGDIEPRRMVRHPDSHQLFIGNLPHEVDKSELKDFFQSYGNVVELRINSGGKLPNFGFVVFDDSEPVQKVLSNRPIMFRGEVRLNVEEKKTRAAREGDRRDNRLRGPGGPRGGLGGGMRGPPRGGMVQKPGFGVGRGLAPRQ
Technique: RNA Bind-n-Seq
Form: RNA
Medium: in vitro
Tested at: 1 µM
Notes: whole 134-nt RNA, ends assumed
With: 150 mM KCl
Reference: input library
Reading: higher = stronger binding
All sequences stand within: GGGAGUUCUACAGUCCGACGAUC … UGGAAUUCUCGGGUGUCAAGG
Strand | log2 enrichment
GUCCUGUGCUACACAUCGUAUGUACCGAAUCGGAAAAAAAGGUUUUUUUGGAAAAAGGAAAGUAUUAUGUUACGCCGUUCGGAUCUGCAC | -0.356
AAGUCCUGUGCUACACAUCGUAUGUACCGAAUCGGGGAAAAGGAAAAGGAAAAGGGAAAGUAUUAUGUUACGCCGUUCGGAUCUGCACUU | -0.0902
UGGUUCUGGCAUUUAUGACCCUUGUGAAAAAGAAGCCACUGAUGCUAUUGGGCAUCUAGACAGACAGCAACGGGAAGAUAUCACACAGAG | -0.14
UCCUGUGCUACACAUCGUAUGUACCGAAUCGGGGUUUUUGGGUUUUUGGGUUUUUGGGGAAAGUAUUAUGUUACGCCGUUCGGAUCUGCA | 0.0887
ACCAUGCAGGUGGGCAUCUUUGGGAAGUGGGGCAAGGGGGGGAUAGGGAGGGGGGUAACACUUUGGGAACAGGUGGUCAAAGGUCGUUUC | -0.256
AGUCCUGUGCUACACAUCGUAUGUACCGAAUCAAAUUUUUAAACCCCCAAAUUUAAAAAAGUAUUAUGUUACGCCGUUCGGAUCUGCACU | -0.406
UCAAGUCCUGUGCUACACAUCGUAUGUACCGAAUCGGAAAAAAAGGAGGAAAGGAAAGUAUUAUGUUACGCCGUUCGGAUCUGCACUUCC | -0.00948
GUCCUGUGCUACACAUCGUAUGUACCGAAUCGGUUUUUUUGGUUUUUUUGGAAAAAGGAAAGUAUUAUGUUACGCCGUUCGGAUCUGCAC | -0.317
UGGCCCUGGUGGCAUGCGGGGAGGAAGAGGUGGCCUCAGGGAUCGUGGUGGUCCCGGUGGAAUGUUCAGAGGUGGCCGUGGUGGAGACAG | 1.07
AGUCCUGUGCUACACAUCGUAUGUACCGAAUCGGGAAAAAGGGAAAGGGUUUUUGGGAAAGUAUUAUGUUACGCCGUUCGGAUCUGCACU | 0.265
GUCCUGUGCUACACAUCGUAUGUACCGAAUCAAACCCCCAAACCCCCAAACCCCCAAAAAAGUAUUAUGUUACGCCGUUCGGAUCUGCAC | -0.215
UCAAGUCCUGUGCUACACAUCGUAUGUACCGAAUCGGGGCCGGGCCGGGGCCGGGAAAGUAUUAUGUUACGCCGUUCGGAUCUGCACUUC | -1.12
UCAGAGGAAUAUCCUUGACUUCCCCCAGCAUGUUUCCCCCUCCAAGGACAUCCGGACAGCCAGCACAGAGGCCGACAAGAAGCUCUCUGA | -0.0913
UUCUUUGCCCAACGGGGCCGUGGAUACCUGCCUUUUAAUUCUUUUUUAUUCGCCCAUCGGGGCCGCGGAUACCUGCUUUUUAUUUUUUUU | -0.413

Repeated from above (study 1):
Strand | E-score
TCATACGA | -0.0258
AGAACAGG | -0.206
GGGGAGTA | 0.107
AGTGGGCG | 0.213
GGTAAAGA | -0.0102
CAGGTTCA | 0.00579
GCAGCGAC | 0.0973
GATGGCCA | -0.0699
ACTCCACT | -0.0892
AACATAGG | -0.0923
ACCGTAGG | 0.00894
